# Results of several laboratories.
# Values joined by “and” are separate records of one study, mostly repeats; a detail may differ.
# Target: Serine/threonine-protein kinase MRCK alpha (CDC42BPA, Homo sapiens, UniProt Q5VT25)
Structure (SMILES),test,conditions,how to read,endpoint,result
COc1ccc(NC(=O)Nc2ccc3c(c2)C(=O)N(C(C)CO)CC(C)C(CN(C)Cc2ccc4c(c2)OCO4)O3)cc1 (stereo not shown),"kinase activity, KinaseProfiler","0.03 µM, species human",relative to: control,remaining activity,122%
CC(C)=CC1OC(C)(C)C2C=C3C(=O)C(Cl)=CC(O)C3C3C(O)C4OC4C(=O)C132 (stereo not shown),"cell-free assay, competition with immobilised ligand",10 µM,,remaining binding,100%
COCC12C(=O)NC3C4(C(OC)CC1O)C1CC5(O)C(OC)C(O)C(OC(C)=O)(C1C5OC(=O)c1ccccc1)C3(O)C(OC)C24 (stereo not shown),"kinase activity, inhibitor, ProQinase kinase profiling",25 µM,relative to: control,remaining activity,98% and 100%
C[C@H]1CN(C(=O)c2cn(-c3ccnc(N)n3)c3cc(C#CC4(O)CCCCC4)ccc23)CCN1,"enzyme activity, inhibitor, FRET",1 µM,,inhibition,0%
COc1c(Cl)cccc1Nc1c(-c2ccncc2C#C[C@@]2(C)CCCN2C(=O)/C=C/CN(C)C)[nH]c2c1C(=O)NCC2,"cell-free assay, competition with immobilised ligand",3 µM,,remaining binding,100%
C=CC(=O)N1CCc2ccc(-n3c(=O)ccc4cnc5ccc(-c6cnn(C)c6)cc5c43)cc21,KINOMEscan,1 µM,relative to: DMSO control,remaining binding,100%
Cc1cccc(O[C@H]2CCC[C@@H](C(C)CNCc3ccncc3)C2)c1 (relative stereo),"enzyme activity, inhibitor",10 µM,,inhibition,5%
CNC(=O)C[C@H](Cc1ccc(C#N)cc1)NC(=O)c1cc(-c2ccc(CN[C@H](C)c3ccc(C)cc3)o2)ccc1Cl,"enzyme activity, inhibitor",1 µM,,activity vs control,103%
O=C=[N][Ru-4]123([n]4c5ccc(O)cc5c5c6c(c7cc(F)c[n+]1c7c54)C(=O)NC6=O)[S+]1CC[S+]2CC[S+]3CC1 (stereo not shown),enzyme activity,"100 nM, human enzyme, together with: 10 µM ATP",relative to: untreated,remaining activity,108%
NC(=O)[C@@H](O)C[C@H]1CCc2sc3ncnc(O[C@H]4CC[C@H](N5CCOCC5)CC4)c3c21,"enzyme activity, inhibitor",10 µM,,inhibition,-3%
O=C(Cc1ccc(OCc2ccccc2)cc1)NC1(C(=O)O)CCN(C(=O)c2ccc(-c3cccc(Cl)c3)cc2)CC1,"enzyme activity, inhibitor",10 µM,,activity vs control,116%
CCn1cc(C(=O)O)c(=O)c2c(N)c(F)c(NC3CCCCC3)cc21,kinase activity,"0.1 µM, together with: ATP at Km",,inhibition,1.8%
CN1CCN(Cc2ccc(-c3ccc(CO[C@H]4CCC[C@@H]4NC(=O)c4cc(-c5cnn(C)c5)cnc4N)cc3)cc2)CC1,"enzyme activity, inhibitor",0.1 µM,,inhibition,12%
C=CC(=O)N1Cc2nc(-c3cc(-c4cc(Cl)cnc4Cl)c(F)cc3F)n(-c3ccncn3)c2C1,"cell-free assay, inhibitor",1 µM,,inhibition,8.7%
C=CC(=O)Nc1cccc(-c2cnc3[nH]cc(C(=O)NC(C)(C)C)c3n2)c1,"enzyme activity, inhibitor",0.1 µM,,inhibition,19%
COc1cc(Nc2nccc(-c3cnn4nc(OC)ccc34)n2)cc(C(F)(F)F)c1,"binding, competition with immobilised ligand",1 µM,,remaining binding,88%

# Some of these lines once more:
Structure (SMILES),test,conditions,how to read,endpoint,result
C=CC(=O)N1CCc2ccc(-n3c(=O)ccc4cnc5ccc(-c6cnn(C)c6)cc5c43)cc21,KINOMEscan,1 µM,relative to: DMSO control,remaining binding,100%
Cc1cccc(O[C@H]2CCC[C@@H](C(C)CNCc3ccncc3)C2)c1 (relative stereo),"enzyme activity, inhibitor",10 µM,,inhibition,5%
